Results gathered from unrelated publications.
A part holds a random share of what one study measured.

Sample 1 — technique: EMSA with sequencing; molecule type: double-stranded DNA, one strand shown; matrix: in vitro; tested at: 10 and 20 nM; baseline: negative control set to 0; direction: higher = stronger binding; quantity: normalised bound fraction
Target: Hepatocyte nuclear factor 3-alpha (Foxa1, Mus musculus, UniProt P35582, residues 1-468, full length assumed)
Notes: whole designed probe, mean of two concentrations, ends assumed
Target sequence (chain): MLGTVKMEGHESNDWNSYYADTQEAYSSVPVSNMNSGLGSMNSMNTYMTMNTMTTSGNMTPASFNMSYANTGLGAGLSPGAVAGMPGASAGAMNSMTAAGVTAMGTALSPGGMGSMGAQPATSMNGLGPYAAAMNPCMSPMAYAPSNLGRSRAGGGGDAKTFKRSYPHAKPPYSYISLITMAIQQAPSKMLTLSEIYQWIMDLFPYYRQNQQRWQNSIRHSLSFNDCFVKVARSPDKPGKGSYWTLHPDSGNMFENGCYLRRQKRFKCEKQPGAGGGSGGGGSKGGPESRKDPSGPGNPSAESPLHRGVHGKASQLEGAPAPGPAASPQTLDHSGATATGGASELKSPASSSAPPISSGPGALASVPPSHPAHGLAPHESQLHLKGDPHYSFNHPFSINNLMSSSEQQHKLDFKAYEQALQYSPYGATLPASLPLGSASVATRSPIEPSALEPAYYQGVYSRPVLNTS
Oligonucleotide = GTGAGCGGTGCCCATTGATGGGGAACATGTGCTAAAAATACAAGACTTGCTTACGCAGAGAGCCGGGAGCTATGTTCCAGTGAGGGTGGAAACAAAAGCCTCAGTATAAGACTGTCAGGTGTTTACACTTGCTCATGTGGCAAAGGGTGTGGTACACGAGGTTGCTGGACTCCACATGCTGAGGCTCAAAGTAGAAATCACTGATCTTATGTCACATATTTTCACTGGGATCGTGGGGAC; value = 0.266 ratio
Oligonucleotide = GTGAGCGGTGCCCATTGATGGGGAACACTCAAATTCTATTTTGACTGTTGAGAATCAAATACATCTTTAATGGGTTAATGTTGGCAATAATCGAAAGTGTTTTAGCTAACATTCATGTGTAAACAAGGACAAACATTGGCAAATGTGATAATTACTACATAAGTTGTAAATTCATATGGAAAATGCATTTACTAATTCAGTCAGGGATAGGCTGTGATGTTTCACTGGGATCGTGGGGAC; value = 0.353 ratio
Oligonucleotide = GTGAGCGGTGCCCATTGATGGGGAACAAGAATTTATACATATGCTTTTCAATATCTGCCCTATTTTTTCTTTTGTATTTAAAAAAAATAAAATTCTAAAGAGAGTAAAAATGTACAATGTAATCTTGTTGGTACAAAGAAGCTGAGAAGAGGATTTATTTTATATGTTATGAAGTATGAAATTTAGATATATAAGTAAGGTCTTGGAGAGAAGTTGTACTTTCACTGGGATCGTGGGGAC; value = 0.00479 ratio
Oligonucleotide = GTGAGCGGTGCCCATTGATGGGGAACGTGCTTCTAACTAGGTTAGGATACCCTGTTCTCATATATGAACTCTGCAAGAATGAGTACAATTTTCAGGAATGAGAGGGCAGGAGGGGGGAGTTATTTACATTAGCATTTGCCAAGTTTTCACTGTTTATCTTACCGGAAAGTCAACAGTGTGACTATTAACCTCCTGCATAATTAAAATTTGGGCCTTGTTTTTCACTGGGATCGTGGGGAC; value = 0.447 ratio

Sample 2 — technique: RNA Bind-n-Seq; molecule type: RNA; matrix: in vitro; tested at: 200 nM; notes: whole 134-nt RNA, ends assumed; with: 150 mM KCl; baseline: input library; direction: higher = stronger binding; quantity: log2 enrichment
Target: Fragile X messenger ribonucleoprotein 1, C-terminal low-complexity region (Fmr1, Mus musculus, UniProt P35922)
Oligonucleotide = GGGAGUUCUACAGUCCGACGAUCUGGGAGGUGGAUUUUGUUUAUUUUUUUAGCUCAUUUCCAGGGGUGAGAAUUUUUUUUUAAUAUGUGUCAUGAAUAAAGUUGUUUUUGAAAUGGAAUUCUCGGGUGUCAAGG; value = 0.0832
Oligonucleotide = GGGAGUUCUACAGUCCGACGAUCUCCUGUGCUACACAUCGUAUGUACCGAAUCGGGGUUUUUUGGUUUUUUGGGUUUUUUGGAAAGUAUUAUGUUACGCCGUUCGGAUCUGCAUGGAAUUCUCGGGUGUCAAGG; value = -0.0413
Oligonucleotide = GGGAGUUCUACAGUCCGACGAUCUCAAGUCCUGUGCUACACAUCGUAUGUACCGAAUCGGGUUUGGGUUUGGUUUGGGAAAGUAUUAUGUUACGCCGUUCGGAUCUGCACUUCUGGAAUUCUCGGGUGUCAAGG; value = -0.183
Oligonucleotide = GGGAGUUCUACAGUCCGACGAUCCUCAAGUCCUGUGCUACACAUCGUAUGUACCGAAUCGGUUUUUUUGGUGGUGGAAAGUAUUAUGUUACGCCGUUCGGAUCUGCACUUCCAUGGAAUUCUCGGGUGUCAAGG; value = -0.0119
Oligonucleotide = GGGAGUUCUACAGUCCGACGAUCACCAUGCAGGUGGGCAUCUUUGGGAAGUGGGGCAAGGGGGGGAUAGGGAGGGGGGUAACACUUUGGGAACAGGUGGUCCCAGGACGUUUCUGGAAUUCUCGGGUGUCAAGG; value = 0.699
Oligonucleotide = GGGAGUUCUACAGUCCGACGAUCCUCAAGUCCUGUGCUACACAUCGUAUGUACCGAAUCGGGCCGGCCGGGGCCGGGAAAGUAUUAUGUUACGCCGUUCGGAUCUGCACUUCCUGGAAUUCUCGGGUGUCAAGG; value = -0.137
Oligonucleotide = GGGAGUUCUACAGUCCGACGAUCCUGUGCUACACAUCGUAUGUACCGAAUCGGGGCCCCCCCGGGCCCCCCCGGGCCCCCCCGGGAAAGUAUUAUGUUACGCCGUUCGGAUCUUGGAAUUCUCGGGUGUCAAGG; value = -1.25
Oligonucleotide = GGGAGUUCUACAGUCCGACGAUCCCUCAAGUCCUGUGCUACACAUCGUAUGUACCGAAUCGGUUUUUGGAGGAGGAAAGUAUUAUGUUACGCCGUUCGGAUCUGCACUUCCAGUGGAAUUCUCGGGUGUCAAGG; value = 0.138
Oligonucleotide = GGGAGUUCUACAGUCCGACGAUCUCCUGUGCUACACAUCGUAUGUACCGAAUCGGAAAAAAGGGGAAAAAAGGGAAAAAAGGAAAGUAUUAUGUUACGCCGUUCGGAUCUGCAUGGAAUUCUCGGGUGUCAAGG; value = -0.451
Oligonucleotide = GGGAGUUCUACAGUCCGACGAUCAGUCCUGUGCUACACAUCGUAUGUACCGAAUCGGUUUUUGGUUUUUGGUUUUUUUGGAAAGUAUUAUGUUACGCCGUUCGGAUCUGCACUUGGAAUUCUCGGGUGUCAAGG; value = -1.03

Sample 3 — technique: RNA Bind-n-Seq; molecule type: RNA; matrix: in vitro; tested at: 365 nM; baseline: no-protein control; direction: higher = stronger binding; quantity: RBNS enrichment (R)
Target: RNA binding protein fox-1 homolog 2, RRM domain, GST-SBP tag (RBFOX2, Homo sapiens, UniProt O43251-10, residues 100-194)
Notes: natural RNA segment, single round, ends assumed
Target sequence (chain): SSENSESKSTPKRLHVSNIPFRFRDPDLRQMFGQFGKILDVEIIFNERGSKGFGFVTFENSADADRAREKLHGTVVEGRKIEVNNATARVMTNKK
Oligonucleotide = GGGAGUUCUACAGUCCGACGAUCCCAAUGCUAGGACACUGGCCAUGUGCACACCAGCACUCAAGACAAGAAGCCAGCCUCCCGGCCCAGCUGGCCUGGGCAGCCCCAGUGCCCUCAGAAUUACUAUUUUUGUUUGGAAUUCUCGGGUGCCAA; value = 0.249
Oligonucleotide = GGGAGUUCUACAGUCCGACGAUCUUGAGAAAUGUGAACAUGCUGUGGGGCUGAGCCUCUGCUAUAUCACCGUGAGCUGUAGGAUCAGCUGGCUGGCUGGGUUGGUGAGUGCCUACCUUGAGGUCUCAUGAAAGUGGAAUUCUCGGGUGCCAA; value = 0.491
Oligonucleotide = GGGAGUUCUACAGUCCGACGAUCGAUGAUUGUAAAAUUUGCUCCUCAAAGGAAUCAGGCCAGACUCAAUUUUGGAGGGCAAGACAGGGAGGAGGCCGCUUCAUCCCAGACUCUCUUCUAGGGCUUCCCACCAUUGGAAUUCUCGGGUGCCAA; value = 0.414
Oligonucleotide = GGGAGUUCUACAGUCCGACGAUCUCGAUUUCAUGUCUGGGAGCCUGGACCAGGCUACCCGGGAAGUCAGGACCCUGAUCAUUCACUGUGACACCCCAGCCCUCCAAGGGUACCCCGGGAGACCACGUGACUCUUGGAAUUCUCGGGUGCCAA; value = 0.198
Oligonucleotide = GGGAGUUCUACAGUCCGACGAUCGAUUCUUACAAGCAAAGGUCAUUGUGUUUUUUCUUGAGUAGAUACCUAAUAAAUUUUGCUUGAAAGUACCUUGGCUUCUCACUGGUGUUUAUGUAGACCUUGUCUUAUUCUGGAAUUCUCGGGUGCCAA; value = 0.685
Oligonucleotide = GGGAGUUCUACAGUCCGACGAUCGAGGCUUGACCCCGGGCACCAUGGGCCACUCCAGGAUGGGACACGGCCCCUCUUUCUUGGGGACCCAGUAUGUCCUCUCCUCUAGACCCAGACAUACAGUUAUAACCGUCUGGAAUUCUCGGGUGCCAA; value = 0.311

Sample 4 — technique: RNA Bind-n-Seq; molecule type: RNA; matrix: in vitro; tested at: not given; notes: RNA with constant flanks, ends assumed; baseline: input RNA pool; direction: higher = stronger binding; quantity: bound/input enrichment
Target: RING finger protein unkempt homolog, zinc fingers 1-6, GST-SBP tag (UNK, Homo sapiens, UniProt Q9C0B0, residues 30-357)
Sequence of UniProt Q9C0B0 (30-357, looked up): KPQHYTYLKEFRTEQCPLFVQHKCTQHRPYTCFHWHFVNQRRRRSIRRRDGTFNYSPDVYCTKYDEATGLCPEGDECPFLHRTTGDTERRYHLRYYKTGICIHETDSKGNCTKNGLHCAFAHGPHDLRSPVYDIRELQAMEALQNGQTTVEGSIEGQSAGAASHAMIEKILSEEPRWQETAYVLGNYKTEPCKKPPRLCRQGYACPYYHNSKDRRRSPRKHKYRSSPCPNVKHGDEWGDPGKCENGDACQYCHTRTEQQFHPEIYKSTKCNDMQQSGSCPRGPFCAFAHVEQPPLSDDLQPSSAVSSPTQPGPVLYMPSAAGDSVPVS
Oligonucleotide = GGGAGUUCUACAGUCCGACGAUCCAGGUAUUUAUAGUGAAUCAUACUGUAAAAAAGAGGUAGCAUGAUAUGCUGGAAAGCAUAUCCGACCCGGAGUCAAGACCUGGUUUCUAGUCUUGGUUUUGCCAUUAAUGUGCUGCAUGACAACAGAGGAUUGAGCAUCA; value = 0.214 ratio
Oligonucleotide = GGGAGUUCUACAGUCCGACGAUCGCGAACAGCCAUUAGGAAGAAUGCUGAGUGCUCCGGCGUGAGUCGUGACUUCUGAUGACCCCGCAAAUAAUGCCACACACUGCAAUACUGUGAAGACACUCGCAAGGAUACAGCAGUGAUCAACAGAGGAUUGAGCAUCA; value = 0.177 ratio
Oligonucleotide = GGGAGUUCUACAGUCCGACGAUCGGCUCCAGGAGCUGUCCUUGAACUUGGAGAAGGAUUUGGGUAAGAAUGCCAGUCCCCGAGUCCGCCGCACGAGGCUUUGUGCCUUGCCCCCAUUGAUGUCUGAUAUUGCUGCAAUCCAGGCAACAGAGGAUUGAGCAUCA; value = 0.131 ratio
Oligonucleotide = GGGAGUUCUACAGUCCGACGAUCAGGUUAAAGAGAAAUGACUUUUUAGGAACUAGACUUGAACGUAUAAUUAAUAUGUGGAACCCGUUUGCUUUUAUAAUUCAUUGUAUCAAGAAGGAGUCAUGUUUUAAAUCCAAGGCAUUGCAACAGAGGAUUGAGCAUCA; value = 0.526 ratio
Oligonucleotide = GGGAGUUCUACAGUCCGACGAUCAUUGUUGAAGCGAAUCCACUUUUAGAAGCAUUUGGAAAUGCAAAGACUGUUCGCAACAAUAACCGCAGUCGAUUUGGAAAAUUUGUAGAAAUUCAUUUCAAUGAAAAGAGUUCGGUUGUUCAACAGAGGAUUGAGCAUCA; value = 0.287 ratio
Oligonucleotide = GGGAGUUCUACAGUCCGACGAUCGAAAUAAAUGUGGAAGCUAAGCAAGUUAAGGAUAUCAUGAAAACACUCGAGAGCUUCAAACCCGACAUCACUUCUUUGCAAGCUGCACAACAUGAAUUUCCAGCUGCUGAAGGAGAAGUCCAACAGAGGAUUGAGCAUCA; value = 0.22 ratio
Oligonucleotide = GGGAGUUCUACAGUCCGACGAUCAAUCAGGCAAAGAAAGGGGGUGUAAGUUGUGGGACCAGUUUUAGAGGGACAGUUGGACGGACCCGAGAUUACACUGUUUUACAUCCAUCUUGCUUGUCAGUUUGUAAUGUUACCAUACAGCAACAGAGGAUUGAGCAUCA; value = 0.467 ratio
Oligonucleotide = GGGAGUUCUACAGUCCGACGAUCCAUUGGAGACUGAGCAAAAGGAAAUGUGAAACGAAUAACAUGAUGGAAUAUGUCAUCCUCACCGAAUUUUUACCAAAGACACCGAUUUUUCGACCAGAUUAGCAUUUACUUUAUUUAUAGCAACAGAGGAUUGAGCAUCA; value = 19.5 ratio

A few entries again (sample 3):
Oligonucleotide = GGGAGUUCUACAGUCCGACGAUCUCGAUUUCAUGUCUGGGAGCCUGGACCAGGCUACCCGGGAAGUCAGGACCCUGAUCAUUCACUGUGACACCCCAGCCCUCCAAGGGUACCCCGGGAGACCACGUGACUCUUGGAAUUCUCGGGUGCCAA; value = 0.198
Oligonucleotide = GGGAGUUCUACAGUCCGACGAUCGAUUCUUACAAGCAAAGGUCAUUGUGUUUUUUCUUGAGUAGAUACCUAAUAAAUUUUGCUUGAAAGUACCUUGGCUUCUCACUGGUGUUUAUGUAGACCUUGUCUUAUUCUGGAAUUCUCGGGUGCCAA; value = 0.685
Oligonucleotide = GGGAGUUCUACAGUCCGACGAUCGAGGCUUGACCCCGGGCACCAUGGGCCACUCCAGGAUGGGACACGGCCCCUCUUUCUUGGGGACCCAGUAUGUCCUCUCCUCUAGACCCAGACAUACAGUUAUAACCGUCUGGAAUUCUCGGGUGCCAA; value = 0.311
